Experimental data from different studies.
Numbered parts are unrelated; each lists some results of a single study.

Sample 1 — method: RNA Bind-n-Seq; form: RNA; medium: in vitro; tested at: 200 nM; setting: whole 134-nt RNA, ends assumed; together with: 150 mM KCl; reference: input library; direction: higher = stronger binding
Target: Fragile X messenger ribonucleoprotein 1, C-terminal low-complexity region (Fmr1, Mus musculus, UniProt P35922)
| Oligonucleotide | log2 enrichment |
| --- | --- |
| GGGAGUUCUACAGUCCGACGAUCCUCAAGUCCUGUGCUACACAUCGUAUGUACCGAAUCGGGGUGGGUGGGUGGGGAAAGUAUUAUGUUACGCCGUUCGGAUCUGCACUUCCAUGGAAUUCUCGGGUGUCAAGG | 0.262 |
| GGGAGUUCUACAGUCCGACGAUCCACAGACAACACGCACCCACACAGACACAGAGGGAAAGGGUUGGGAUGGGGACAGGGUGCACAGCAGGGCGGGGUAGGACCCCAGCCCCUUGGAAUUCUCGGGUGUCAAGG | 1.28 |
| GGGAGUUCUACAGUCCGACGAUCUAACUUUAGAGGAGGAUCUGAUGGAUAUGGCAGUGGACGUGGAUUUGGGGAUGGCUAUAAUGGGUAUGGAGGAGGACCUGGAGGAGGCAAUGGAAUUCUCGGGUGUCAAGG | 0.0908 |
| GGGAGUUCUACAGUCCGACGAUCUGGGAGGUGGAUUUUGUUUAUUUCUUUAGCUCAUUUCCAGGGGUGGGAAUUUUUUUUUAAUAUGUGUCAUGAAUAAAGUUGUUUUUGAAAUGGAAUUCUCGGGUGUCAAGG | 0.272 |
| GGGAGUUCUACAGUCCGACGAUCCCUCAAGUCCUGUGCUACACAUCGUAUGUACCGAAUCGGGUGGGAGGGUGGGAAAGUAUUAUGUUACGCCGUUCGGAUCUGCACUUCCAGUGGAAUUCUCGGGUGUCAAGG | 0.795 |
| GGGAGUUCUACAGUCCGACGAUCACCAUGCAGGUGGGCAUCUUUGGGAAGUGGGCCAAGGGGGGGAUAGGGAGGGGGGUAACACUUUGGGAACAGGUGGUCCCAGGUCGUUUCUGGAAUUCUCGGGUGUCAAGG | 0.927 |
| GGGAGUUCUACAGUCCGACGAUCUCCUGUGCUACACAUCGUAUGUACCGAAUCGGGAAAAAAAGGGAAAGGGAAAAAAAGGGAAAGUAUUAUGUUACGCCGUUCGGAUCUGCAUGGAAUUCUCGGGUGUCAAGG | -0.28 |
| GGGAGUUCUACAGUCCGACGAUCCCUGUGCUACACAUCGUAUGUACCGAAUCAAAGUGUGUGUGUGUAAAGUGUGUGUGUAAAAAAGUAUUAUGUUACGCCGUUCGGAUCUGCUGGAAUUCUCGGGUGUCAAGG | -0.271 |
| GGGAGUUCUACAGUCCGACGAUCUAACUUUAGAGGAGGAUCUGAUGGAUAGGGCAGUGGACGUGGAUUUGGGGAUGGCUAUAAUGGGUAUGGAGGAGGACCUGGAGGUGGCAAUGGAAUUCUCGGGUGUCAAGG | 0.486 |
| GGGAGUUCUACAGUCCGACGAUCCAAGUCCUGUGCUACACAUCGUAUGUACCGAAUCGGGAAAGGGAGGGUUUUUGGGAAAGUAUUAUGUUACGCCGUUCGGAUCUGCACUUCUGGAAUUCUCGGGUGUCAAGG | 0.81 |

Sample 2 — method: protein binding microarray; form: double-stranded DNA, one strand shown; medium: in vitro; tested at: not given; reference: not given; direction: higher = stronger binding
Target: Histone acetyltransferase KAT6A, winged helix 2, GST fusion (KAT6A, Homo sapiens, UniProt Q92794, residues 85-181)
Setting: 8-mer, flanks averaged, mean of 2 arrays, mostly near background
Target sequence (chain): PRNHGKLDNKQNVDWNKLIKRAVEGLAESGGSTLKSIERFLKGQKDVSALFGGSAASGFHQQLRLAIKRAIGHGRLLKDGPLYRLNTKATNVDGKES
| Oligonucleotide | E-score |
| --- | --- |
| AAACGGTG | 0.0642 |
| ATGACGCC | -0.0153 |
| CGGAGAAG | 0.101 |
| ACCACTTA | -0.0702 |
| ATCGGTAA | 0.0275 |
| GGCGGTAC | 0.0392 |
| AGAACTGA | 0.0842 |
| ATCCAACA | 0.0717 |
| AGACTTAA | -0.0998 |
| CCACGATA | -0.00405 |
| AGAAGTGG | -0.24 |
| ATTCGGTC | -0.0482 |
| AGAGAGGC | -0.131 |
| GCGAACAC | 0.116 |
| ACAACGCA | -0.079 |
| CAATGGTG | -0.094 |
| CCGGTAGC | -0.135 |
| TGCCCACA | 0.0213 |
| GGCTAAAC | 0.0887 |
| CGTTAAAA | -0.096 |
| ACCCGAAG | 0.157 |
| CGCACCAA | 0.112 |
| ACTTGTTC | 0.146 |

Sample 3 — method: EMSA with sequencing; form: double-stranded DNA, one strand shown; medium: in vitro; tested at: 10 and 20 nM; reference: negative control set to 0; direction: higher = stronger binding
Target: Hepatocyte nuclear factor 3-alpha (Foxa1, Mus musculus, UniProt P35582, residues 1-468, full length assumed)
Sequence of UniProt P35582 (whole entry, looked up): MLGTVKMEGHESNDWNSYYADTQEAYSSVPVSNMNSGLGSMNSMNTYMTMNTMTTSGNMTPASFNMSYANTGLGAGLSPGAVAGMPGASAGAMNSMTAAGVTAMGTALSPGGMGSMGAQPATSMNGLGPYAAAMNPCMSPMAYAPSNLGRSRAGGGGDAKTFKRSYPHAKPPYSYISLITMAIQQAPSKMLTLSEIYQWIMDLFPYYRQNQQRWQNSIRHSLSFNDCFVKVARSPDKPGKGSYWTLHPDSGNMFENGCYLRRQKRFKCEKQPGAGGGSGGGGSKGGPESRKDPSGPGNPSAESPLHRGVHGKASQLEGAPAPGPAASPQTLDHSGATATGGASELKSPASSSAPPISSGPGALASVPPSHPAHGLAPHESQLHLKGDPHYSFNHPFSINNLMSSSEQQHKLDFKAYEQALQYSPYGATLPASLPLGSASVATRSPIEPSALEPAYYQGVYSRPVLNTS
Setting: whole designed probe, mean of two concentrations, ends assumed
| Oligonucleotide | normalised bound fraction [ratio] |
| --- | --- |
| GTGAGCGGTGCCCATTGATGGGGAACAAACAGTTCTGTTAGGAAAGATCAGCAAACACCACGTGCAGCAACTCAACAAGCATCTCTATCCTGCCTCTGGCGAGCACATGTTATTTCTAAGCCAACAGCGCCACCTAGTGGAAATATAAATCCTCTTCATGTGGCAAATCGCCGGTGTTTTACAGTAATACTGCAGCTTCTCAATTCTTTCTTTTTGCACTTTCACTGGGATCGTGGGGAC | 0.0694 |
| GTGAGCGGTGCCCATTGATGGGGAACTAAGAAAGTAATAAACTAGGCTTGCCCTGGCAGTCATATTGTAATGGAACGCAGATACCTCATTGTGTGTGAATTTGAAATTAAAAAACAAAGTAAACATGGTGAGCTGCTACCATTGCTGCCCCCTCCCTGCCTTGCCCACTAAGGAGAGAGGCACTGCCTTGTTTCCCTTTGTATTTCAAGGAGCTTCTCGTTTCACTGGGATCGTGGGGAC | 0.369 |
| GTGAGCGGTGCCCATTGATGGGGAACTTTAGACAACCATTTTGCTTATGTTGTACTCTTTTTATAGAATATGAAAAAGAAAGTGTAAAAAGCAGATCTTATAAAATTCTCTTACCTTCCATGTTTACATTTTGATGTTGGTATCAATTTACTCTCCTATAGATGCTTGGTATTATTATTTTTGAAACAGAGAAATTTCACGTGTGTAAAATTACAGAGTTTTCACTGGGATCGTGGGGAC | 0.255 |
| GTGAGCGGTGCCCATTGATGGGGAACCTTACAGTACTGCAAGTTGCTCTAGGTGAGTCAGTGAGTGGTAAGTGAATGTGAAGGCCTAGGTTGTTACTGTGCTGTAGACTTTATAGACATAGAGTACTTAGACGACAATACATTTTTATTTTTATTATTATTTTTGAGACAGAATCTTGCTCTGTTGCCCAGACTAGAGTGCAGTGGTGCAATCTTGGCTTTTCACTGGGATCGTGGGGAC | -0.00526 |
| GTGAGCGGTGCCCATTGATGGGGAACGGAAGCTCTTTGTACCCCTTTTGCAACTTTTCAGTAAATTTGCAGTTATTTCAAAATATAAAAAGTTAAACATTTGCTAGAAAAGTTTCTAAATGTTTACTCTCGGTTTCTGCTCAAGGGTGGGTGGCTTATGGTTCCCGCAGAGGCATTCCAAGTTACACGATCTGACAAGACATGGAGCGACCTGAGTTTGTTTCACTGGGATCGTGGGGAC | 0.176 |
| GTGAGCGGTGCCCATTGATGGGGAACGGAAGTCTGCAATGCTTTGAACAGCAGGGTGTGGGAGGAAGTGTTGGCCCTACTCACCCTGCCTGACCTCCCTGGGCTGTGAGCTCAGAGCTCTGTTTACATAGCTGAGGGACTGGGAATGCTGGAGTGGAGGAAGGAGGTGATGAATGATTCAGGAGGACACACAACATCCCTGCTTTTCTTTCCTGCTGGCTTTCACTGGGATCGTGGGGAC | 0.421 |
| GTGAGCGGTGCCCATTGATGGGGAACGACTTTTACACAGGCATCATGGGAGTAAGCCCAAGATATTTTCTCACACTTGATTCCAGGCATCTCGGGTTTGGTTTCTTGATCAAATATCTGTGTTTGCTCTGTTTACAAGTATCTGATGAGCAAAACCAACAGAGGTGCTCCAGACAGGCTGGCTGTGCTGATCCCTTGGAAAAGAATTAAACAAAACCCATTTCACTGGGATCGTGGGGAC | 0.243 |
| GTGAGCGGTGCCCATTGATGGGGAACAACAAGGCCCAAATTTTAATTATGCAGGAGGTTAATAGTCACACTGTTGACTTTCCGGTAAGATAAACAGTGAAAACTTGGCAAATGCTAATGTAAATAACTCCCCCCTCCTGCCCTCTCATTCCTGAAAATTGTACTCATTCTTGCAGAGTTCATATATGAGAACAGGGTATCCTAACCTAGTTAGAAGCACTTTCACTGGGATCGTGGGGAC | 0.453 |

Sample 4 — method: protein-binding microarray; form: double-stranded DNA, one strand shown; medium: in vitro; tested at: 250 nM; setting: 60-bp whole probe; together with: salmon DNA 0.4 mg/ml; reference: random background probes; direction: higher = stronger binding; all sequences stand within: GCCTAGCAC … GTCTTGATTCGCTTGACGCTGCTG
Target: Interferon regulatory factor 5, full length, phosphomimetic (IRF5, Homo sapiens, UniProt Q13568-2, residues 1-514, K96S/S451D/S453D/S456D/S462D)
| Oligonucleotide | log fluorescence |
| --- | --- |
| TTAGGACTGGGTATCGGTAAGTGCTAG | 2.75 z-score |
| GTCACTCTCTGGGCTGTGGGTGTGCTA | -0.344 z-score |
| TTAGGTTACGGGTTTCGGTTAGTGCTA | 7.29 z-score |
| TCAACACTCGGTTTCCAACTGTGCTAG | 0.404 z-score |
| AGAAATTTCTTTCTAATTCAGTGCTAG | 2.92 z-score |
| TCAATAATTTTTTTCTAACTGTGCTAG | 0.86 z-score |
| TCAGTTTCTCCTTTCCAACTGTGCTAG | 4.08 z-score |
| TTAGGTTTCGGTTCCTGTTAGTGCTAG | 10.3 z-score |
| TGGAGAGCATATTCTGTGACGTGCTAG | -0.36 z-score |
| GACGGACTGGGTTTCCGGACGTGCTAG | -0.389 z-score |
| GACGGACTGGACTATCGGAACGTGCTA | 1.19 z-score |
| GACGATTTCAGTTCCGACACGTGCTAG | 1.37 z-score |
| TCATGTATGGGCATTTTTACTGTGCTA | -0.278 z-score |
| ACACTACCTGACTTCAAACTGTGCTAG | 0.357 z-score |
| TTAGATATCAGTATCGATGAGTGCTAG | 6.07 z-score |
| GACGATATCAGTCTCGAGACGTGCTAG | 1.32 z-score |
| TACGGTTTCGGTTCCGGGACGTGCTAG | 9.73 z-score |
| TAAGGTATCCTTCTCCTTTAGTGCTAG | 0.407 z-score |
| ATATATATTCATATATATATGTGCTAG | 1.08 z-score |
| GACGGACTGGACACTGGGGGCGTGCTA | -0.0826 z-score |
| GACGGGCTGCTTCTCCTGACGTGCTAG | -0.739 z-score |

For quick reference, copied from above (sample 4):
| Oligonucleotide | log fluorescence |
| --- | --- |
| GACGGACTGGGTTTCCGGACGTGCTAG | -0.389 z-score |
| GACGGACTGGACTATCGGAACGTGCTA | 1.19 z-score |
| GACGATTTCAGTTCCGACACGTGCTAG | 1.37 z-score |
| TCATGTATGGGCATTTTTACTGTGCTA | -0.278 z-score |
